Results of several laboratories.
A part holds a random share of what one study measured. Changes are numbered by the printed parent chain.

Sample 1 — technique: RNA Bind-n-Seq; molecule type: RNA; sample: in vitro; tested at: 365 nM; relative to: no-protein control; reading: higher = stronger binding
Target: RNA binding protein fox-1 homolog 2, RRM domain, GST-SBP tag (RBFOX2, Homo sapiens, UniProt O43251-10, residues 100-194)
Setting: natural RNA segment, single round, ends assumed
All sequences stand within: GGGAGUUCUACAGUCCGACGAUC … UGGAAUUCUCGGGUGCCAA
Residues (chain): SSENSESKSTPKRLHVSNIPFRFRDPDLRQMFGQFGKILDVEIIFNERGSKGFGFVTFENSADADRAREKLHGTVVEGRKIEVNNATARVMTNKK
`AGAGCCAUUUUUUAAAAAUGCCGAGCAGGGCAAUGCAAGUACAGCCAAAUAUUAGACUUGAUGUGCAAUCUUCGGUCCUUUUUAAUCUGGGGUAUUAUAGGCAGUACUUU`: “RBNS enrichment (R)” 0.447.
`UCUUCAAGUCCCGCUGACGUCUGAGCUUUGAUGCUUAAGAGGGGUGAGGCAGGGAGCGGACUUCCUAUUUUCUACCCUCAGUAAAACAAGGUGCUGCUUUGUAUAUCAAA`: “RBNS enrichment (R)” 0.379.
`UUGUCCAACACCAGCCCUGACCCAAGUCCAAAUGUUUACAGGGAGCCUCCUGCCUACCCCACUCUCUGCCGCUCGGAGGCCCCAAAGGAAAAAGCACAAGAAGCGUGAGA`: “RBNS enrichment (R)” 0.711.
For `CAGUAAUUACAAGCUGACUUUUUACUGAACAUAGGAAUGUUAAAAACAAAUGUGUAGGUGGCUGGAGAAAUGGCUUAGUGGUUAAGAGCUCGGUCCUGAGUUCAAUUCCC`, “RBNS enrichment (R)” read 0.725.
`UUCGGGGGGUCCUGCUGGGGAGGGGGGCUGGGCUCCCACCAUGGGGCCCAUGCCGAGUGGAUGCCCCCCACCCUCUCUCCUGGGCCACUGAGGAGAGGGGAGAGAGCUGG`: “RBNS enrichment (R)” 0.644.
`UAUACCUUGCUUAUUAAAUGAGCGACUUAAAAUGAUUGAAAAUAAUGCUGUUCUUUAGUAGCAACUAAAAUGUGUCUUGCUGUCAUUUAUAUUCCUUUUCCCAGGAAAGA` — result for “RBNS enrichment (R)”: 0.267.
For `UUUUUUGAGCUUUAUUGUGGUUGUUAAUUUGAAGUAAUAAAGUAGAAAAGGACAAAGUGAUAUAGAUCCCUCUGUCUGCCUCUUUGCUCUUGGGGUUUCUCAUCGCUGAC`, “RBNS enrichment (R)” read 0.835.
Under “RBNS enrichment (R)”, `CGGAGCACAUCUGUGGUCAAUGGGCUUCCCUAUCUGCCGACUUGGCUCCCAAGGUUCUGCAGGAAAGCAGACCUGCACACAGAUCCCGUGGCUGCUGAAAAGACACAUGU` is recorded as 0.316.
`GUACCUGGAAAUGUGAAUCUGGAUUCUUACCUGUGUCAUCAGAGUAGUAAUGGAUUCAGUACUCCUCAACUCCUAAUGAUUGAGAAGAAGGCAAACGAUAAAGAAAUCCC` — result for “RBNS enrichment (R)”: 0.413.
For `AGGACAAAGCCAGGAGUGGAGCUGAGGAAGACUAAGGUAGAAACUCUGUGCCCAAGCUGACACAGAACCCCAAAUGUGUGGGAGGAAUGGACCCCAGAGCUUUGGGCCCA`, “RBNS enrichment (R)” read 0.671.
`GUCCCUCUGUUCACUACCCUCUUGCUCUGAGGCACGCUGGUUCUGGAGUAUAUUUCCACCUAUGAUGACAUAGCUAGACCUCCUUUUACCAACAAAACUCCAGGUUGAGA` — result for “RBNS enrichment (R)”: 0.214.
Under “RBNS enrichment (R)”, `GUUUGACAGAACCACAUCACAUCGUGGAGAAGCUGGUGCAGGAGUUCCUAGAGCCCCAGGGUCAACUGUCCUCUCUAGCAUGCAGCCUGUGACAGCUUGCUUCAGGACAA` is recorded as 3.62.

Sample 2 — technique: universal PBM; molecule type: double-stranded DNA, one strand shown; sample: in vitro; tested at: 600 nM; reading: higher = stronger binding
Target: Sal-like protein 4, full length isoform A (SALL4, Homo sapiens, UniProt Q9UJQ4, residues 1-1053)
UniProt Q9UJQ4, sequence (whole entry, looked up): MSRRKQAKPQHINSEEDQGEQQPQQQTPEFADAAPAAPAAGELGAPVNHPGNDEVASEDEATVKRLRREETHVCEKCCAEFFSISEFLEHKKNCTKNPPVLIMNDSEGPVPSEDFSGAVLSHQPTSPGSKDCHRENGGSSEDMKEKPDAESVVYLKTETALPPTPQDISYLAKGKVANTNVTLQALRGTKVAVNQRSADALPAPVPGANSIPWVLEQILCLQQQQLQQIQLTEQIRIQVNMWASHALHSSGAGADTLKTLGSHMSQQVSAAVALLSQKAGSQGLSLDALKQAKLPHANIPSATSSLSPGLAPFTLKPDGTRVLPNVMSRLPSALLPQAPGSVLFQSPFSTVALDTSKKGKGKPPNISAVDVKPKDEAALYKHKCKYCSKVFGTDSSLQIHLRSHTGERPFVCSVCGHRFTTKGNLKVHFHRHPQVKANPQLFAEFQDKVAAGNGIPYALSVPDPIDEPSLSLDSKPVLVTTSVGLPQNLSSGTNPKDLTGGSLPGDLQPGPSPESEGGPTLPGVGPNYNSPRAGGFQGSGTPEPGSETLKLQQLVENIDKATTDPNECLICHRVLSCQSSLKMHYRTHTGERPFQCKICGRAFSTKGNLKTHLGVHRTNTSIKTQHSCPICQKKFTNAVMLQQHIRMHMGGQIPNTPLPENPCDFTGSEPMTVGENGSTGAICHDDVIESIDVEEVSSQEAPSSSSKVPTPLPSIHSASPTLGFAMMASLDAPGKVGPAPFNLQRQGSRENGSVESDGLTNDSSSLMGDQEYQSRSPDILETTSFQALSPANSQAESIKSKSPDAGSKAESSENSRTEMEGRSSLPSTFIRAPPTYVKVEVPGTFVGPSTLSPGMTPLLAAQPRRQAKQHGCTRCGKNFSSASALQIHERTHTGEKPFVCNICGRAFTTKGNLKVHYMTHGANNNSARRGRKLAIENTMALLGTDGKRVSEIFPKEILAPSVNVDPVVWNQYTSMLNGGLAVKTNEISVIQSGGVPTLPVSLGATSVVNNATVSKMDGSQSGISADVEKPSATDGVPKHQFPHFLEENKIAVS
Setting: 8-mer, flanks averaged, mean of replicates
The E-score of `AGCGGTCG` is reported as -0.325.
The E-score of `AAAAGAAA` is reported as 0.237.
With `AGGAGTGA` the E-score was -0.0322.
For `AATGTCAC`, the E-score was 0.0763.
For `AGCTGTAT`, the E-score was 0.129.
For `CTAGTAGA`, the E-score was 0.127.
For `AGGTATGA`, the E-score was 0.142.
With `AGATAGAC` the E-score was 0.0197.
`AATTCGGT` gave an E-score of 0.0849.
With `AGGTACTC` the E-score was 0.0455.
`CAATTGCA` has an E-score of 0.156.
The E-score of `AGGAGCAC` is reported as -0.12.
`CAGTTAAG` gave an E-score of 0.0488.
The E-score of `GGATAACA` is reported as 0.0997.
The E-score of `GTATGCCA` is reported as -0.155.
The E-score of `AGAGGAGC` is reported as -0.217.
`GGTGCTAA` has an E-score of 0.00297.
The E-score of `AGCCCATA` is reported as 0.0636.
The E-score of `ATCGCAAA` is reported as 0.188.
With `AGTCCGGC` the E-score was -0.29.
With `ACCGGAGA` the E-score was -0.0812.
The E-score of `AAGGCCAA` is reported as -0.119.
`AATCTAAA` has an E-score of 0.243.
`AATAGCGT` has an E-score of 0.197.
`TCCGTACA` has an E-score of -0.00116.

Sample 3 — technique: aptamer microarray, sandwich; molecule type: DNA with 2'F-ANA; sample: in vitro; tested at: 200 nM; added: Cy3 exosite-II aptamer, 400 nM; reading: higher = stronger binding; sequence: GGTTGGTGTGGTTGG
Target: Prothrombin, mature alpha-thrombin (F2, Homo sapiens, UniProt P00734)
Setting: whole 15-mer aptamer, many near background
For `2'F-ANA at 1 3 5 9 10 14`, “mean fluorescence intensity” read 46.4 a.u.
`2'F-ANA at 1 9 10 11 12 13 14 15` — result for “mean fluorescence intensity”: 49.8 a.u.
Under “mean fluorescence intensity”, `2'F-ANA at 3 8 9 11 13 15` is recorded as 858 a.u.
`2'F-ANA at 1 2 3 4 6 10 11` — result for “mean fluorescence intensity”: 56.5 a.u.
`2'F-ANA at 1 3 4 5 7 8 11 13 15` — result for “mean fluorescence intensity”: 57 a.u.
`2'F-ANA at 4 5 6 9 10 11 12 13 15`: “mean fluorescence intensity” 82.5 a.u.
`2'F-ANA at 2 4 7 8 13` — result for “mean fluorescence intensity”: 305 a.u.
For `2'F-ANA at 3 5 6 8`, “mean fluorescence intensity” read 133 a.u.
Under “mean fluorescence intensity”, `2'F-ANA at 4 6 7 8 9 10 12 14 15` is recorded as 61.4 a.u.
Under “mean fluorescence intensity”, `2'F-ANA at 5 10 12 13` is recorded as 47 a.u.
For `2'F-ANA at 3 5 6 8 9 12 13 14 15`, “mean fluorescence intensity” read 61.8 a.u.
For `2'F-ANA at 1 10 11 13 14`, “mean fluorescence intensity” read 80.3 a.u.
For `2'F-ANA at 1 2 3 4 6 11 13 14 15`, “mean fluorescence intensity” read 55.1 a.u.
Under “mean fluorescence intensity”, `2'F-ANA at 1 2 3 5 7 11 12 13 14 15` is recorded as 58.8 a.u.
`2'F-ANA at 2 3 4 6 9 10 11 12` — result for “mean fluorescence intensity”: 235 a.u.
For `2'F-ANA at 2 7 10 15`, “mean fluorescence intensity” read 157 a.u.
`2'F-ANA at 4 5 6 7 11 12 13 14` — result for “mean fluorescence intensity”: 51.6 a.u.
Under “mean fluorescence intensity”, `2'F-ANA at 5 7 9 13` is recorded as 56.7 a.u.

Sample 4 — target: CCNA1, cyclin fold, Cln2 fusion (human); technique: yeast growth competition, sequencing; sample: yeast; setting: strong parent motif; relative to: not given; reading: higher = stronger binding
Starting sequence: RBL2 docking peptide (human); STTRRRLFVENDS
`D12M` — result for “normalised enrichment score”: 0.485.
`R5V`: “normalised enrichment score” 0.398.
`F8A` — result for “normalised enrichment score”: 0.184.
For `L7K`, “normalised enrichment score” read 0.185.
`F8G`: “normalised enrichment score” 0.113.
Under “normalised enrichment score”, `D12N` is recorded as 0.0603.
Under “normalised enrichment score”, `L7R` is recorded as 0.48.
For `N11M`, “normalised enrichment score” read 0.795.
`S1R` — result for “normalised enrichment score”: 0.837.
`N11A`: “normalised enrichment score” 0.347.
Under “normalised enrichment score”, `S1F` is recorded as 0.688.
`V9R`: “normalised enrichment score” 0.338.
For `F8C`, “normalised enrichment score” read 0.502.
`R4F`: “normalised enrichment score” 0.569.
`D12T` — result for “normalised enrichment score”: 0.206.
For `V9W`, “normalised enrichment score” read 0.764.
`R4W` — result for “normalised enrichment score”: -0.00892.
`R5S`: “normalised enrichment score” 0.444.
`S13F`: “normalised enrichment score” 0.709.
`S13I`: “normalised enrichment score” 0.746.
`N11E` — result for “normalised enrichment score”: 0.55.
Under “normalised enrichment score”, `T2M` is recorded as 0.614.
`T2V` — result for “normalised enrichment score”: 0.581.
Under “normalised enrichment score”, `V9M` is recorded as 0.856.
Under “normalised enrichment score”, `F8V` is recorded as 0.529.

Some of these lines once more (sample 4):
`R5S`: “normalised enrichment score” 0.444.
`S13F`: “normalised enrichment score” 0.709.
`S13I`: “normalised enrichment score” 0.746.
`N11E` — result for “normalised enrichment score”: 0.55.
Under “normalised enrichment score”, `T2M` is recorded as 0.614.
